Measurements from different studies.
Parts stem from different laboratories: compare values within a part only. Changes are numbered by the printed parent chain.

Set 1
Target: ABI1, truncated, D143A, DHFR fusion (Arabidopsis thaliana)
Technique: DHFR PCA, deep sequencing
Sample: yeast
Setting: methotrexate growth selection, single substitutions
Added: (+)-ABA 0.032 µM
Relative to: wild-type fitted maximum
Reading: higher = stronger binding
Starting sequence: PYL1, truncated, DHFR fusion (Arabidopsis thaliana); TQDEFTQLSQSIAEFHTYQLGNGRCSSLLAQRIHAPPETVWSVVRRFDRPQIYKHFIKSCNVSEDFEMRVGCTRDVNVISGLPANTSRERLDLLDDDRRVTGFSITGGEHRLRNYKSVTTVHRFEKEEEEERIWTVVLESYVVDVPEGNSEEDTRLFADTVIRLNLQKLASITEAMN; partner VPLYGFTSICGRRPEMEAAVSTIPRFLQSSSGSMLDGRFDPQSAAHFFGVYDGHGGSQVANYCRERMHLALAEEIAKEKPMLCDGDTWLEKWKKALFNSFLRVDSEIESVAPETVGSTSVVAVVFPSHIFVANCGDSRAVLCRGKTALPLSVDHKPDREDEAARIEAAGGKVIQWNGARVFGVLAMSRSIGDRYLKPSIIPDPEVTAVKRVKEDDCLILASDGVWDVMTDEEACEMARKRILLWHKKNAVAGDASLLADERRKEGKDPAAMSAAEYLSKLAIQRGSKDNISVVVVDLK
Change	relative binding score [%]
F5V	20.1
Q10T	25.6
I79T	26.3
T173L	-3.53
H110L	18.6
R132Y	13.4
E64F	3.28
I133E	56.7
M176C	8.18
R49F	-2.76
Y141A	-3.25
S171W	6.52
P37H	-1.39
D3G	3.65
F47R	-2.75
S59V	-0.337
L166K	-1.3
Y18I	-2.88

Set 2
Target: CCNA2, cyclin fold, Cln2 fusion (human)
Technique: yeast growth competition, sequencing
Sample: yeast
Setting: strong parent motif
Relative to: not given
Reading: higher = stronger binding
Starting sequence: NPAT docking peptide (human); PCHRRVLCFDSTT; partner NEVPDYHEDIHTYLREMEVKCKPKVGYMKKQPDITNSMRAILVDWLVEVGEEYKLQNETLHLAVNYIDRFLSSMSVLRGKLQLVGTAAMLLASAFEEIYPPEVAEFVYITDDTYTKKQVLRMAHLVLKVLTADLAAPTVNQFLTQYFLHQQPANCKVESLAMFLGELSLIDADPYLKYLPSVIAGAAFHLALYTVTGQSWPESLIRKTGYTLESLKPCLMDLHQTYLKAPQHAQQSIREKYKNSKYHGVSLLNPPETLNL
Change	normalised enrichment score
V6A	2.4
T13A	1.27
C8A	1.15
C2A	1.61
R5K	0.849
L7A	0.136
S11A	1.14

Set 3
Target: Hepatocyte nuclear factor 3-beta, forkhead domain (FOXA2, Homo sapiens, UniProt Q9Y261, residues 142-269)
Technique: protein-binding microarray
Molecule type: double-stranded DNA, one strand shown
Sample: in vitro
Tested at: not given
Setting: k-mer, scored over probes, only values ≥0.25
Reading: higher = stronger binding
Target sequence (chain): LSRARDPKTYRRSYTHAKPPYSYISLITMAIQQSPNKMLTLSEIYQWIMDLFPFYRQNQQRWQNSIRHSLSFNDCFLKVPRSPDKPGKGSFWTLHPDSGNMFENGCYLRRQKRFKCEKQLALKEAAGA
Strand	E-score
AGACATTA	0.275
ATGTCAAT	0.28
AATGTATG	0.265
TACACTGA	0.318
ATGTATGC	0.341
AATGATAT	0.302
CAATACAA	0.322
GGTTAGTA	0.27
AGGTATTA	0.278
ATCATGAT	0.344
CATTGAAA	0.253
TATATATA	0.381
CTACAAAC	0.285

Set 4
Target: FOXO3, forkhead domain (mouse, UniProt Q9WVH4, residues 31-263)
UniProt Q9WVH4, sequence (31-263, looked up): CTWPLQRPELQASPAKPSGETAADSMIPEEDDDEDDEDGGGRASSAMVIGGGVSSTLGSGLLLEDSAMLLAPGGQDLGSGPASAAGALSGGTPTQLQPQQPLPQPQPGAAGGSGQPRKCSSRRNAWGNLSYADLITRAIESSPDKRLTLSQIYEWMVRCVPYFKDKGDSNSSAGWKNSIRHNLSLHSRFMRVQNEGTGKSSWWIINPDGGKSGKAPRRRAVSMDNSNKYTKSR
Technique: protein-binding microarray
Molecule type: hairpin DNA
Sample: in vitro
Tested at: not given
Setting: whole hairpin DNA, median over replicate spots
Relative to: not given
Reading: higher = stronger binding
Strand	median fluorescence [a.u.]
GAGGCCCTGTAACCAACGCCTCCTGGCGTTGGTTACAGGGCCTCACACTC (5mC at 7)	3970
GAGGCCATGTGAACAACGCCTCCTGGCGTTGTTCACATGGCCTCACACTC	4110
GAGGCCATGTCGACAACGCCTCCTGGCGTTGTCGACATGGCCTCACACTC (5mC at 33)	4550
GAGGCCATGTAACCACGGCCTCCTGGCCGTGGTTACATGGCCTCACACTC (5mC at 16 28)	4010
GAGGCCATGTAACCACGGCCTCCTGGCCGTGGTTACATGGCCTCACACTC	4040
GAGGCCATCGAACCAACGCCTCCTGGCGTTGGTTCGATGGCCTCACACTC (5mC at 9 35)	4310
GAGGCCATGTAAACAGCGCCTCCTGGCGCTGTTTACATGGCCTCACACTC	5150
GAGGCCATGTAACCACCGCCTCCTGGCGGTGGTTACATGGCCTCACACTC (5mC at 16)	4310
GAGGCCATGAAACCAACGCCTCCTGGCGTTGGTTTCATGGCCTCACACTC	3990
GAGGCCATGCCGACAACGCCTCCTGGCGTTGTCGGCATGGCCTCACACTC (5mC at 11 33)	4510
GAGGCCATGTACGCAACGCCTCCTGGCGTTGCGTACATGGCCTCACACTC (5mC at 32)	4740
GAGGCCATGCAAACACGGCCTCCTGGCCGTGTTTGCATGGCCTCACACTC (5mC at 16)	4600
GAGGCCATGGAACCAACGCCTCCTGGCGTTGGTTCCATGGCCTCACACTC	4410
GAGGCCATGCAACCAACGCCTCCTGGCGTTGGTTGCATGGCCTCACACTC	4580
GAGGCCATGTAACCAAGGCCTCCTGGCCTTGGTTACATGGCCTCACACTC (5mC at 28)	3720
GAGGCCACGCAAACAACGCCTCCTGGCGTTGTTTGCGTGGCCTCACACTC (5mC at 8)	5050
GAGGCCATGCAAACACGGCCTCCTGGCCGTGTTTGCATGGCCTCACACTC	4990
GAGGCCATGGAAACAACGCCTCCTGGCGTTGTTTCCATGGCCTCACACTC	4470
GAGGCCATGTAAACAACGCCTCCTGGCGTTGTTTACATGGCCTCACACTC (5mC at 36)	5040
GAGGCCATGCAAACAATGCCTCCTGGCATTGTTTGCATGGCCTCACACTC	4430
GAGGCCATGTAACCCGCGCCTCCTGGCGCGGGTTACATGGCCTCACACTC (5mC at 15)	4350
GAGGCCATGTAAACAACGCCTCCTGGCGTTGTTTACATGGCCTCACACTC	5720

Repeated from above (set 4):
Strand	median fluorescence [a.u.]
GAGGCCATGGAACCAACGCCTCCTGGCGTTGGTTCCATGGCCTCACACTC	4410
GAGGCCATGTACGCAACGCCTCCTGGCGTTGCGTACATGGCCTCACACTC (5mC at 32)	4740
GAGGCCATGTAACCAAGGCCTCCTGGCCTTGGTTACATGGCCTCACACTC (5mC at 28)	3720
GAGGCCATGTAACCCGCGCCTCCTGGCGCGGGTTACATGGCCTCACACTC (5mC at 15)	4350
GAGGCCACGCAAACAACGCCTCCTGGCGTTGTTTGCGTGGCCTCACACTC (5mC at 8)	5050
GAGGCCATGGAAACAACGCCTCCTGGCGTTGTTTCCATGGCCTCACACTC	4470
GAGGCCATGCAACCAACGCCTCCTGGCGTTGGTTGCATGGCCTCACACTC	4580
GAGGCCATGTAACCACGGCCTCCTGGCCGTGGTTACATGGCCTCACACTC (5mC at 16 28)	4010
